Experimental data collected from several papers.
A part holds a random share of what one study measured.
UniProt Q9Y5N1, sequence (whole entry, looked up): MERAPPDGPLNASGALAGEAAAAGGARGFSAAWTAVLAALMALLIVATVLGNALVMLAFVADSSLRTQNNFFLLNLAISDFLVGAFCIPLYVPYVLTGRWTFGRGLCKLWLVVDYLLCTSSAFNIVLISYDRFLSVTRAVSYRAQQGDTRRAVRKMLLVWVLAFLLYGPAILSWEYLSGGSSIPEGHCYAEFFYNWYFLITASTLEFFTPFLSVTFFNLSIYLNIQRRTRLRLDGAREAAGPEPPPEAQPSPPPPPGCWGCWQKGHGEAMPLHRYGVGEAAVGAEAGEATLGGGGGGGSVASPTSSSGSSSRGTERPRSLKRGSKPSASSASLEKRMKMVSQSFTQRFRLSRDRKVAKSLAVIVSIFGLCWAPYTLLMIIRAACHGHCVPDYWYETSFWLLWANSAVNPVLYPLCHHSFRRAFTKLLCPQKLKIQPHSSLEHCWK
UniProt P08172, sequence (whole entry, looked up): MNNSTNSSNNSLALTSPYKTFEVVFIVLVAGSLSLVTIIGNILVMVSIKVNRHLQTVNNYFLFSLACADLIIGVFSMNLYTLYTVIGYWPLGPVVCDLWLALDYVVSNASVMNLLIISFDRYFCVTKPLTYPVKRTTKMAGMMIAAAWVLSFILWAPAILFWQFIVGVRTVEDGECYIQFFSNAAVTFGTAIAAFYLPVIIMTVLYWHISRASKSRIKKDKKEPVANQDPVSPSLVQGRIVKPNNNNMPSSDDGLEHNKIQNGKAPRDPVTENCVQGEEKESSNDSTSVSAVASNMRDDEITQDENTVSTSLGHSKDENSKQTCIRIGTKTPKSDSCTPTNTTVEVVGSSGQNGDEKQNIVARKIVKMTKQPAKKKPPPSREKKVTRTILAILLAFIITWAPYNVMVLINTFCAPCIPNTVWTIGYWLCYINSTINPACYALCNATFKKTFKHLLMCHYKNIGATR

Study 1
Target: TAR DNA-binding protein 43, full length, His tag (TARDBP, Homo sapiens, UniProt Q13148, residues 1-414)
Method: RNA Bind-n-Seq
Form: RNA
Medium: in vitro
Tested at: 20 nM
Setting: 6-mer, flanks averaged, single round
With: 150 mM LiCl
Relative to: input library
Direction: higher = stronger binding
Strand	6-mer enrichment (R)
GCUCGG	0.938
CCAUUA	0.927
GUGCCC	1.13
GUCCCG	0.952
CAUUAC	0.882
CGAAGA	0.826
AAGUGA	0.953
CGUACG	0.882

Study 2
Target: PABPC1L2, full length, GST fusion (mouse, UniProt A0ABA7IW68)
Method: RNAcompete
Form: RNA
Medium: in vitro
Tested at: 20 nM
Setting: 7-mer, probes averaged, single round
Relative to: mean of 7-mers
Direction: higher = stronger binding
Construct (chain): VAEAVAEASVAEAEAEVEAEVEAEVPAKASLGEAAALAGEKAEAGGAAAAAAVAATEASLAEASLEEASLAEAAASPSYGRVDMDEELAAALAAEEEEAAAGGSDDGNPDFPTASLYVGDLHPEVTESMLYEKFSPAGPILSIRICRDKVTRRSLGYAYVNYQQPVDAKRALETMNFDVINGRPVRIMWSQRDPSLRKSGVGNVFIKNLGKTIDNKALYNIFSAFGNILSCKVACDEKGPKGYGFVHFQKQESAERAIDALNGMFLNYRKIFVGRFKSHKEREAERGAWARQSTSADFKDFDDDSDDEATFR
Strand	7-mer Z-score
GACUUGC	-0.186
GCCGGAU	-0.0681
UUGUGUC	-0.541
UAUGAGC	-0.202
AGAUUUG	-0.353
UCGGACA	0.0261
UGACUCU	-0.24
AUUUCGG	-0.132

Study 3
Target: Histone acetyltransferase KAT6A, winged helix 1, GST fusion (KAT6A, Homo sapiens, UniProt Q92794, residues 1-85)
Method: protein binding microarray
Form: double-stranded DNA, one strand shown
Medium: in vitro
Tested at: not given
Setting: 8-mer, flanks averaged, mean of 2 arrays, mostly near background
Relative to: not given
Direction: higher = stronger binding
Construct (chain): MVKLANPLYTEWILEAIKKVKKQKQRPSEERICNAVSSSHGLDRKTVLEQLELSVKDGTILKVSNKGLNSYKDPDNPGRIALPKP
Strand	E-score
ATTCTTTC	-0.108
ACCTGTGC	-0.0335
CGTATCGA	0.0832
ACAACACG	-0.00288
TATAGCAA	-0.0033
AGACCAAC	-0.315
AGTGCAAA	-0.264
GACGGGAC	0.395

Study 4
Compound: CS(=O)(=O)c1cc(C2(NC(=O)c3cncc4c3cnn4-c3ccc(F)cc3)CC2)ccn1
Read-out: cell-free assay
Tested at: 10 µM
target	inhibition
SIGMAR1 (Homo sapiens, UniProt Q99720)	26.4%
HRH3 (Homo sapiens, UniProt Q9Y5N1)	29.6%
CHRM2 (Homo sapiens, UniProt P08172)	-15.9%

Some of these lines once more (study 1):
Strand	6-mer enrichment (R)
CCAUUA	0.927
CGUACG	0.882
GCUCGG	0.938
